Measured values collected from several papers.
Parts stem from different laboratories: compare values within a part only. Positions count from the first letter of the parent shown.

Series 1 — target: CCNF, cyclin fold, Cln2 fusion (human); method: yeast growth competition, sequencing; medium: yeast; notes: strong parent motif; relative to: not given; direction: higher = stronger binding
Starting sequence: CDC6 docking peptide (human); TLKGRRLVFDNQL
For `TLKGRCLVFDNQL [R6C]`, “normalised enrichment score” read 7.12.
Under “normalised enrichment score”, `TLKGRRLVFDNWL [Q12W]` is recorded as 9.86.
`TLKGHRLVFDNQL [R5H]`: “normalised enrichment score” 0.952.
Under “normalised enrichment score”, `TLKGRRLVFDNQY [L13Y]` is recorded as 9.41.
For `TLKGRRLGFDNQL [V8G]`, “normalised enrichment score” read 3.71.
`TLKGRRLVFDNQK [L13K]` — result for “normalised enrichment score”: 7.88.
`TLKGRRLVFDNFL [Q12F]` — result for “normalised enrichment score”: 10.3.
For `TLKGRRLNFDNQL [V8N]`, “normalised enrichment score” read 9.46.
For `TLKGRRLVFDNQQ [L13Q]`, “normalised enrichment score” read 8.81.
For `TLKGRREVFDNQL [L7E]`, “normalised enrichment score” read 0.307.
Under “normalised enrichment score”, `TLKGRRLVFDNQS [L13S]` is recorded as 9.74.
`TLKGRRLVFDNIL [Q12I]` — result for “normalised enrichment score”: 9.06.

Series 2 — method: universal PBM; molecule type: double-stranded DNA, one strand shown; medium: in vitro; concentration: not given; direction: higher = stronger binding
Target: Sal-like protein 4, full length isoform B (SALL4, Homo sapiens, UniProt Q9UJQ4-2, residues 1-616)
Notes: 8-mer, flanks averaged, mean of replicates
Residues (chain): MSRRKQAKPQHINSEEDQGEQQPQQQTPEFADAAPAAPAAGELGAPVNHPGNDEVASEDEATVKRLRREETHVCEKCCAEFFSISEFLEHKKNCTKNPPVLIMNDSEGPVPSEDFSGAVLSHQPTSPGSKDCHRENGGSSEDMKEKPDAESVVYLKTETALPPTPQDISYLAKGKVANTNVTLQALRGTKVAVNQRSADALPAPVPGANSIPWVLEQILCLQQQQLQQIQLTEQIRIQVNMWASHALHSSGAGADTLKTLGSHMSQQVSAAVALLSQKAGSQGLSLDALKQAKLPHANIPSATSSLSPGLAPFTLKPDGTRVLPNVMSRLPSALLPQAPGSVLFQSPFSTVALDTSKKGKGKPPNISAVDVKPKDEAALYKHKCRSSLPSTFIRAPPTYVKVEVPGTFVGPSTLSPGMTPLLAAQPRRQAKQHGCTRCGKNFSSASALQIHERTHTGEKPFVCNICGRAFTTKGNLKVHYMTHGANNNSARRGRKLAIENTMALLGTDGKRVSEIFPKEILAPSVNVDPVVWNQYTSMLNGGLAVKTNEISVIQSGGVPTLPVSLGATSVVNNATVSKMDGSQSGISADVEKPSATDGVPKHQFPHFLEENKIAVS
The E-score of `AACTCTAC` is reported as -0.143.
`ATGCCCTA` gave an E-score of -0.0574.
With `GAATGAAA` the E-score was 0.16.
For `GGCTGAGA`, the E-score was -0.121.
The E-score of `TCGCTCCA` is reported as 0.0157.
With `GAGCGTGC` the E-score was -0.175.
`ACCCCCTG` has an E-score of -0.16.
With `CGCTCAAC` the E-score was -0.111.

Series 3 — method: DHFR PCA, deep sequencing; medium: yeast; with: (+)-ABA 4.8 µM; relative to: wild-type fitted maximum; direction: higher = stronger binding
Target: ABI1, truncated, D143A, DHFR fusion (Arabidopsis thaliana)
Notes: methotrexate growth selection, single substitutions
Starting sequence: PYL1, truncated, DHFR fusion (Arabidopsis thaliana); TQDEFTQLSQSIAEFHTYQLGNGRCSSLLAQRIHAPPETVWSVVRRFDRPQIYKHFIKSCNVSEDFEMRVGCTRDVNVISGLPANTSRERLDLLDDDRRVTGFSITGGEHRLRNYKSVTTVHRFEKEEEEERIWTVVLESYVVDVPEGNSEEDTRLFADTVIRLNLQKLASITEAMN
`F124R` — result for “relative binding score”: 13%.
Under “relative binding score”, `N85V` is recorded as 75.8%.
`Q2E`: “relative binding score” 78.1%.
For `L166I`, “relative binding score” read 9.37%.
`I52K`: “relative binding score” 52.3%.
`T6W`: “relative binding score” 64%.
For `D75Y`, “relative binding score” read 72.8%.
For `A170H`, “relative binding score” read -11.6%.
`V136N` — result for “relative binding score”: -11%.
`P36Y`: “relative binding score” 23.5%.
`S26H`: “relative binding score” 64.5%.
Under “relative binding score”, `T106M` is recorded as 72.8%.
Under “relative binding score”, `R111Y` is recorded as -0.959%.

Mixed results
`PhoQ, residues 284 288 289 292 302 303 SVHLDV` has a fold induction of 15.5 (PhoP, residues 12 14 15 18 19 AGCRL (Escherichia coli, UniProt P23836); Sort-seq, refers to: YFP reporter; E. coli; PhoQ-PhoP variant library, with: 10 µM Mg2+; relative to: high Mg2+ state, higher = stronger signaling).

Some of these lines once more (series 3):
`Q2E`: “relative binding score” 78.1%.
For `L166I`, “relative binding score” read 9.37%.
`I52K`: “relative binding score” 52.3%.
`T6W`: “relative binding score” 64%.
For `D75Y`, “relative binding score” read 72.8%.
